Measured values from different studies.
Lines come from different studies, so protocols differ. “And” joins repeats or separate records; there may be more than shown. ± marks the error that the study gave.
Sequence of UniProt Q969G3 (whole entry, looked up): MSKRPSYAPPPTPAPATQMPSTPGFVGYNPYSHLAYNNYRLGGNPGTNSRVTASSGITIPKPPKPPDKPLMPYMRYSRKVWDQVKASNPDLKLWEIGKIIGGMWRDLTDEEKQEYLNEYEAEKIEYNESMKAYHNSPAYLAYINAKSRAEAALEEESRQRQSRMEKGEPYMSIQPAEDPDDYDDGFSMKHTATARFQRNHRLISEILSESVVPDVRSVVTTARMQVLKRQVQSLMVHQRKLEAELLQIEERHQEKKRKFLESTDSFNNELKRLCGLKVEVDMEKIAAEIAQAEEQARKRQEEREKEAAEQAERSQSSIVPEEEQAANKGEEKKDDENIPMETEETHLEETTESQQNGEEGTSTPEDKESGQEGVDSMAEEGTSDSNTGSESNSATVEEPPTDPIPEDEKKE
Sequence of UniProt Q9UHD2 (whole entry, looked up): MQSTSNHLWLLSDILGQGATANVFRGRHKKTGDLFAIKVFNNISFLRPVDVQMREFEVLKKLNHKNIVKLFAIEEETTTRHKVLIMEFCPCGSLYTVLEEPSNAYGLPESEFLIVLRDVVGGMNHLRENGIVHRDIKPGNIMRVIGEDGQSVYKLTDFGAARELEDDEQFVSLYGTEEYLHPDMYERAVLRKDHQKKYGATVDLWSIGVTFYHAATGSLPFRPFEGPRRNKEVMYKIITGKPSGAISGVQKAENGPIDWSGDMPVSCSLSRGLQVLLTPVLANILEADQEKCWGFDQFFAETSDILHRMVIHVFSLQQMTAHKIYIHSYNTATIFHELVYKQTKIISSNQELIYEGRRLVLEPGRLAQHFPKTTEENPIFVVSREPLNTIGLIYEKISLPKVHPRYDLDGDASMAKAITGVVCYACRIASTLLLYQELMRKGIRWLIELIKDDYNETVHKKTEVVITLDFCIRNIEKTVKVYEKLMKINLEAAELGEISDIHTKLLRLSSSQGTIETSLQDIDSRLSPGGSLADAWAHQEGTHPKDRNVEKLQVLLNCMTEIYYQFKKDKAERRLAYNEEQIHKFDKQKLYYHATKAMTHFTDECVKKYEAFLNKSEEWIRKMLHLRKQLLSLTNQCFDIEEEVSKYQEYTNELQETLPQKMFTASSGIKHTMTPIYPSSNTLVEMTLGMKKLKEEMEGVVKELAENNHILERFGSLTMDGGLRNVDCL
Sequence of UniProt P50406 (whole entry, looked up): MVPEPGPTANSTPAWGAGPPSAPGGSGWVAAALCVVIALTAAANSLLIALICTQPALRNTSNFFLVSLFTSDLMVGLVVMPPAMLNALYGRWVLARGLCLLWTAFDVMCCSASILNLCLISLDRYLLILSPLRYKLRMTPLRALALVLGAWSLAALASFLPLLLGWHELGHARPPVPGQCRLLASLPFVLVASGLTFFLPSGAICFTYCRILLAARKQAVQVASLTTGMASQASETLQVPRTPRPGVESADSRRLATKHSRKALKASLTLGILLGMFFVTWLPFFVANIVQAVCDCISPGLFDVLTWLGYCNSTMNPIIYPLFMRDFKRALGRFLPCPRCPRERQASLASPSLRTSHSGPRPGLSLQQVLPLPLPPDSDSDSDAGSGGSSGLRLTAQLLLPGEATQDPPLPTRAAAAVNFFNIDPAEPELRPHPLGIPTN

COc1cccc2c1CCCC2CCCN1CCN(C2CCCCC2)CC1 (stereo not drawn)
half-life (CD-1 mouse, male, lung; intraperitoneal, 0.3 mg/kg): 3.13 h

CN1CCN(c2cc(-c3ccncc3)c(-c3ccc4ccccc4c3)nn2)CC1
inhibition (HTR6 (Homo sapiens, UniProt P50406); antagonist, FLIPR; 10 µM): 14.3%

O[C@H]1CCCN[C@@H]1CCCn1cnc2c(Cl)c(Cl)ccc21
Cmax geometric LS mean (healthy CYP2D6 EM and UM, plasma; oral, dose not given, added: pirfenidone): 221 ng/mL

CC(C)[C@H](N)C(=O)NCCCS(=O)(=O)O
plasma concentration (human, plasma; oral, 265 mg twice daily, 2 h, week 65): 3550 ng/mL

C[C@H]1CN(c2n[nH]c3nc(N[C@H]4CC[C@H](NS(=O)(=O)CCC(F)(F)F)CC4)ncc23)CCO1
remaining binding (SWI/SNF-related matrix-associated actin-dependent regulator of chromatin subfamily E member 1 (Homo sapiens, UniProt Q969G3); Kinobeads competition, item: SMARCE1; 0.032 µM, unit not given; reference: vehicle): 1.13

C[C@@H]1OC(=O)NN=C1c1ccc(-c2ccc(F)cc2)c(C(F)(F)F)c1
patients with adverse event (phase I trial, item: back pain worst grade 1; human patients; 10 mg loading then 0.5 mg daily): 100%

CO[C@H]1C[C@@H]2CC[C@@H](C)[C@@](O)(O2)C(=O)C(=O)N2CCCC[C@H]2C(=O)O[C@H]([C@H](C)C[C@@H]2CC[C@@H](OC(=O)NCCOCCOCCOCCOCCOCCOCCOCCOCCC(=O)N3CCc4cc(Cn5nc(-c6ccc7oc(N)nc7c6)c6c(N)ncnc65)ccc4C3)[C@H](OC)C2)C[C@@H](O)[C@H](C)/C=C(\C)[C@@H](O)[C@@H](OC)C(=O)[C@H](C)C[C@H](C)/C=C/C=C/C=C/1C
AE leading to dose interruption (patients with advanced solid tumours; intravenous, 12 mg weekly, grade 3 or higher): 25%

CC[C@H](C)[C@H](NC(=O)[C@H](Cc1ccccc1)NC(=O)[C@H](CCC(=O)O)NC(=O)[C@H](CCCNC(=N)N)NC(=O)[C@H](C)NC(=O)[C@H](C)NC(=O)[C@H](CCC(N)=O)NC(=O)[C@H](CCC(=O)O)NC(=O)[C@H](CCC(=O)O)NC(=O)[C@H](CC(C)C)NC(=O)[C@H](Cc1ccc(O)cc1)NC(=O)[C@H](CO)NC(=O)[C@H](CO)NC(=O)[C@@H](NC(=O)[C@H](CC(=O)O)NC(=O)[C@H](CO)NC(=O)[C@@H](NC(=O)[C@H](Cc1ccccc1)NC(=O)[C@@H](NC(=O)CNC(=O)[C@H](CCC(=O)O)NC(=O)[C@H](C)NC(=O)CCc1c[nH]cn1)[C@@H](C)O)[C@@H](C)O)C(C)C)C(=O)N[C@@H](C)C(=O)N[C@@H](Cc1c[nH]c2ccccc12)C(=O)N[C@@H](CC(C)C)C(=O)N[C@H](C(=O)N[C@@H](CCCNC(=N)N)C(=O)NCC(=O)N[C@@H](CCCNC(=N)N)C(=O)N[C@@H](CCCCNC(=O)COCCOCCNC(=O)COCCOCCNC(=O)CC[C@H](NC(=O)CCCCCCCCCCCCCCCCC(=O)O)C(=O)O)C(=O)NCC(=O)NCC(=O)N[C@@H](CO)C(=O)N[C@@H](CCCCNc1c(NCCCCCN(O)C(=O)CCC(=O)NCCCCCN(O)C(=O)CCC(=O)NCCCCCN(O)C(C)=O)c(=O)c1=O)C(=O)O)C(C)C [zirconium-89 labelled]
tissue uptake (rat, pancreas; sc, 3 nmol/kg, 168 h, ex vivo): 0.08 %ID/g

[O-][S+]1CCc2nc(N3CCC(c4ncc(Cl)cn4)CC3)nc(NC3(CO)CCC3)c21 (stereo not drawn)
subjects with adverse event (item: abdominal distension; healthy male subjects; dose not given, single rising dose, total): 8.3%

COc1cc2c(Oc3ccc4[nH]c(C)cc4c3F)ccnc2cc1OCC1(N)CC1
grade 3 intestinal obstruction (paediatric recurrent refractory sarcoma; 8 mg): 0%

CC[C@H](C)[C@H](NC(=O)[C@H](Cc1ccccc1)NC(=O)[C@H](CCC(=O)O)NC(=O)[C@H](CCCNC(=N)N)NC(=O)[C@H](C)NC(=O)[C@H](C)NC(=O)[C@H](CCC(N)=O)NC(=O)[C@H](CCC(=O)O)NC(=O)[C@H](CCC(=O)O)NC(=O)[C@H](CC(C)C)NC(=O)[C@H](Cc1ccc(O)cc1)NC(=O)[C@H](CO)NC(=O)[C@H](CO)NC(=O)[C@@H](NC(=O)[C@H](CC(=O)O)NC(=O)[C@H](CO)NC(=O)[C@@H](NC(=O)[C@H](Cc1ccccc1)NC(=O)[C@@H](NC(=O)CNC(=O)[C@H](CCC(=O)O)NC(=O)[C@H](C)NC(=O)CCc1cnc[nH]1)[C@@H](C)O)[C@@H](C)O)C(C)C)C(=O)N[C@@H](C)C(=O)N[C@@H](Cc1c[nH]c2ccccc12)C(=O)N[C@@H](CC(C)C)C(=O)N[C@H](C(=O)N[C@@H](CCCNC(=N)N)C(=O)NCC(=O)N[C@@H](CCCNC(=N)N)C(=O)N[C@@H](CCCCNC(=O)COCCOCCNC(=O)COCCOCCNC(=O)CC[C@H](NC(=O)CCCCCCCCCCCCCCCCC(=O)O)C(=O)O)C(=O)NCC(=O)NCC(=O)N[C@@H](CO)C(=O)N[C@@H](CCSC)C(=O)N[C@H](C(=O)N[C@@H](CCCCNc1c(NCCCCCN(O)C(=O)CCC(=O)NCCCCCN(O)C(=O)CCC(=O)NCCCCCN(O)C(C)=O)c(=O)c1=O)C(=O)O)C(C)C)C(C)C [zirconium-89 labelled]
tissue uptake (ex vivo gamma counting; male Sprague-Dawley rat, heart; intravenous, 1 nmol, 24 h): 0.136 %ID/g and 0.127 %ID/g and 0.134 %ID/g

CC[C@H](C)[C@@H]1NC(=O)[C@@H]2CCCN2C(=O)[C@H](CC(C)C)NC(=O)[C@H](CC(C)C)NC(=O)CNC(=O)[C@@H](NC(=O)[C@@H](NC(=O)[C@H](CC(=O)O)NC(=O)CNC(=O)[C@@H](NC(=O)[C@H](C)NC(=O)CNC(=O)[C@H](CCCCN)NC(=O)[C@H](CC(C)C)NC(=O)[C@H](CC(C)C)NC(=O)[C@H](CCCCN)NC(=O)CNC(=O)[C@@H](NC(=O)[C@@H](N)CC(C)C)C(C)C)C(C)C)C(C)C)CSSC[C@@H](C(=O)O)NC1=O
log2 fold change (RNA-seq, item: Tpm3-rs7 mRNA; mouse traumatic brain injury, frontal cortex and hippocampus; dose not given; reference: TBI plus compound vs TBI): 1.54

C[C@]1(O)C[C@@](N)(c2ccc(-c3nc4n(c3-c3ccccc3)COc3ccncc3-4)cc2)C1
patients with Hyperphosphatemia TEAE (human, advanced or metastatic solid tumours; 16 mg once daily, phase I dose escalation): 0%

CC(C)C[C@H](NC(=O)[C@@H](NC(=O)[C@H](CCCNC(=N)N)NC(=O)[C@H](CCC(N)=O)NC(=O)[C@H](Cc1ccccc1)NC(=O)[C@H](Cc1ccc(O)cc1)NC(=O)[C@H](CC(N)=O)NC(=O)[C@H](Cc1c[nH]c2ccccc12)NC(=O)[C@@H](NC(=O)[C@H](CCCNC(=N)N)NC(=O)[C@H](CCCCN)NC(=O)[C@@H](N)Cc1ccccc1)C(C)C)C(C)C)C(=O)N[C@H](C(=O)N[C@@H](CCCCN)C(=O)N[C@@H](CCCCN)C(N)=O)C(C)C
elution acetonitrile content (reversed-phase UPLC; C18 column, TFA): 44.4%

COC[C@@]12CC[C@H](OC)[C@]34C(C([C@H](OC)[C@H]13)[C@]1(OC(C)=O)[C@H]3[C@@H](OC(=O)c5ccccc5)[C@](O)(C[C@H]34)[C@@H](OC)[C@@H]1O)N(C)C2
MRT(0-t) (Sprague-Dawley rat, plasma; oral, dose not given, with NADES in PCW extract): 1.78 ± 0.155 h

Cc1cccc(Cn2nc(C3CC3)c3c(NC(=O)c4cnc5cc(OCCN6CCN(C)CC6)ccn45)cccc32)n1
all-cause adverse events (CTCAE v4.03, item: AST increased; pancreatic ductal adenocarcinoma patients; oral, dose not given, added: pembrolizumab IV every 3 weeks): 33.3%

COc1ccc2c(c1OC)C(=O)c1c(cc(C)c(O)c1OC)C2=O
cell viability (HepaRG co-cultured with HK-2; MTT; 133.33 µM, 48 h; reference: untreated control): 75 ± 10.6%

COc1ccc(C[C@@H]2NC(=O)[C@H]([C@@H](C)O)NC(=O)[C@@H]3[C@@H]4CCN3C(=O)[C@@H]3Cc5cn(c6ccc(F)cc56)CCCCCCN(Cc5ccc(cc5)CCNC(=O)[C@]5(C)CCCN5C2=O)C(=O)CCC(=O)N[C@@H](C)C(=O)N[C@H](CNC(=O)CCCCC[N+](C)(C)C)C(=O)N[C@@H](Cc2cccc(c2)CNC(=O)CO4)C(=O)N3)cc1
participants with adverse event (item: Toothache; humans; concentration not given, Study-001): 2%

CC1(C)[C@H](C(=O)O[C@H](C#N)c2cccc(Oc3ccccc3)c2)[C@@H]1C=C(Br)Br
enzyme contribution to clearance (item: CYP2B6; human, age 1 year, recombinant human CYP2B6; 0.1 µM): 0.4%

COc1cc(Nc2ncc(F)c(Nc3ccc4c(n3)NC(=O)C(C)(C)O4)n2)cc(OC)c1OC
IC50 (GHB receptor): > 10 µM

COc1ccc(N2C(=O)N(c3c(C)cccc3Cl)Cc3cnc(Nc4ccc(C5CCN(C)CC5)cc4OC)nc32)nc1
inhibition (TBK1 (Homo sapiens, UniProt Q9UHD2); kinase activity; 0.5 µM): 6%

Some of these lines once more:
COc1ccc(C[C@@H]2NC(=O)[C@H]([C@@H](C)O)NC(=O)[C@@H]3[C@@H]4CCN3C(=O)[C@@H]3Cc5cn(c6ccc(F)cc56)CCCCCCN(Cc5ccc(cc5)CCNC(=O)[C@]5(C)CCCN5C2=O)C(=O)CCC(=O)N[C@@H](C)C(=O)N[C@H](CNC(=O)CCCCC[N+](C)(C)C)C(=O)N[C@@H](Cc2cccc(c2)CNC(=O)CO4)C(=O)N3)cc1
participants with adverse event (item: Toothache; humans; concentration not given, Study-001): 2%

CC(C)[C@H](N)C(=O)NCCCS(=O)(=O)O
plasma concentration (human, plasma; oral, 265 mg twice daily, 2 h, week 65): 3550 ng/mL

CC[C@H](C)[C@H](NC(=O)[C@H](Cc1ccccc1)NC(=O)[C@H](CCC(=O)O)NC(=O)[C@H](CCCNC(=N)N)NC(=O)[C@H](C)NC(=O)[C@H](C)NC(=O)[C@H](CCC(N)=O)NC(=O)[C@H](CCC(=O)O)NC(=O)[C@H](CCC(=O)O)NC(=O)[C@H](CC(C)C)NC(=O)[C@H](Cc1ccc(O)cc1)NC(=O)[C@H](CO)NC(=O)[C@H](CO)NC(=O)[C@@H](NC(=O)[C@H](CC(=O)O)NC(=O)[C@H](CO)NC(=O)[C@@H](NC(=O)[C@H](Cc1ccccc1)NC(=O)[C@@H](NC(=O)CNC(=O)[C@H](CCC(=O)O)NC(=O)[C@H](C)NC(=O)CCc1cnc[nH]1)[C@@H](C)O)[C@@H](C)O)C(C)C)C(=O)N[C@@H](C)C(=O)N[C@@H](Cc1c[nH]c2ccccc12)C(=O)N[C@@H](CC(C)C)C(=O)N[C@H](C(=O)N[C@@H](CCCNC(=N)N)C(=O)NCC(=O)N[C@@H](CCCNC(=N)N)C(=O)N[C@@H](CCCCNC(=O)COCCOCCNC(=O)COCCOCCNC(=O)CC[C@H](NC(=O)CCCCCCCCCCCCCCCCC(=O)O)C(=O)O)C(=O)NCC(=O)NCC(=O)N[C@@H](CO)C(=O)N[C@@H](CCSC)C(=O)N[C@H](C(=O)N[C@@H](CCCCNc1c(NCCCCCN(O)C(=O)CCC(=O)NCCCCCN(O)C(=O)CCC(=O)NCCCCCN(O)C(C)=O)c(=O)c1=O)C(=O)O)C(C)C)C(C)C [zirconium-89 labelled]
tissue uptake (ex vivo gamma counting; male Sprague-Dawley rat, heart; intravenous, 1 nmol, 24 h): 0.136 %ID/g and 0.127 %ID/g and 0.134 %ID/g

O[C@H]1CCCN[C@@H]1CCCn1cnc2c(Cl)c(Cl)ccc21
Cmax geometric LS mean (healthy CYP2D6 EM and UM, plasma; oral, dose not given, added: pirfenidone): 221 ng/mL
